Results gathered from unrelated publications.
Compare with care: the assays were run in different laboratories. Values joined by “and” are separate records of one study, mostly repeats; a detail may differ.
ADRB2: Beta-2 adrenergic receptor (ADRB2, Homo sapiens, UniProt P07550)
UniProt P07550, sequence (whole entry, looked up): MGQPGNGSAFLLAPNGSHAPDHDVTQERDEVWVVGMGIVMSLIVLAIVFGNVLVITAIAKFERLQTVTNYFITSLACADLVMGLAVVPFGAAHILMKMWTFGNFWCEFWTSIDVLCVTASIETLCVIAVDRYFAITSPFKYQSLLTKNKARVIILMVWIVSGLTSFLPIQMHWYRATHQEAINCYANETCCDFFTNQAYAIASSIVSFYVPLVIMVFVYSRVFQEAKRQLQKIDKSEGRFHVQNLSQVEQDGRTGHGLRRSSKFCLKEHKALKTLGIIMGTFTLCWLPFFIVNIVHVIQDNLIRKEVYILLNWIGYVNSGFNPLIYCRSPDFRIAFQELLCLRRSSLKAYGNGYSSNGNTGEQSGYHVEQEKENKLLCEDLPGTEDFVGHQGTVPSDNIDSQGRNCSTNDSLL

| Compound | target | test | test system | conditions | how to read | measurement | result |
| --- | --- | --- | --- | --- | --- | --- | --- |
| COc1cc(Cl)c(C(=O)N[C@@H](CN[C@H]2CC[C@@H](N)CC2)Cc2ccc(C#N)cc2)cc1-c1ccc(CN[C@H](C)c2ccc(C)cc2)o1 | ADRB2 | agonist response, antagonist | 2 | 10 µM |  | inhibition | 45% |
| CCC(NC(C)C)C(O)c1ccc(O)c2[nH]c(=O)ccc12 (centres unmarked) | Beta-2 adrenergic receptor, V2R C-tail fusion (ADRB2, Homo sapiens, UniProt P07550) | β-arrestin recruitment, agonist, two-component system, refers to: Cerulean | HEK293 |  |  | Hill coefficient | 1.09 |
| CN1CCC(CNc2ccc3ncc(-c4cccc(OC(F)(F)F)c4)n3n2)CC1 | ADRB2 | cAMP, antagonist, cell-based GPCR |  | 10 µM | reference: control | response | > 50% |
| CCCC(CCC)c1nc2c(Nc3ccc(C#CCCCCCCCCN)cc3)nc3ccccc3c2[nH]1 | ADRB2 | PDSP screening |  |  |  | off-target affinity | inactive |
| CN(C(=O)n1cnc(-c2ccc[n+]([O-])c2)c1)C1CCCCC1 | ADRB2 |  |  | 10 µM |  | inhibition | 25.2% |
| N[C@@H](Cc1ccccc1)C(=O)O | ADRB2 |  | HEK293 expressing β2AR | 100 nM |  | cAMP level | 19.1 pmol/mg protein and 16.6 pmol/mg protein and 18 pmol/mg protein and 16.4 pmol/mg protein and 19.7 pmol/mg protein |
| CCN1/C(=C/C(C)=O)Sc2ccc(F)cc21 | ADRB2 |  |  | 10 µM |  | inhibition | 3.19% |
| OCCCN1CC[C@@H]2C[C@H]1c1cc(-c3ccc(C(F)(F)F)cc3)ccc12 | ADRB2 | radioligand binding, PDSP competition binding |  | 10 µM |  | inhibition | < 50% |

A few entries again:
| Compound | target | test | test system | conditions | how to read | measurement | result |
| --- | --- | --- | --- | --- | --- | --- | --- |
| OCCCN1CC[C@@H]2C[C@H]1c1cc(-c3ccc(C(F)(F)F)cc3)ccc12 | ADRB2 | radioligand binding, PDSP competition binding |  | 10 µM |  | inhibition | < 50% |
